Assay results gathered from unrelated publications.
A part holds a random share of what one study measured. Substitutions count along the parent as printed.

Set 1 — observed: binding; technique: phage display NGS; molecule type: peptide; tested at: concentration not given; relative to: input library
Target: UDP-N-acetylglucosamine--peptide N-acetylglucosaminyltransferase 110 kDa subunit (OGT, Homo sapiens, UniProt O15294)
Residues (O15294 1-1046): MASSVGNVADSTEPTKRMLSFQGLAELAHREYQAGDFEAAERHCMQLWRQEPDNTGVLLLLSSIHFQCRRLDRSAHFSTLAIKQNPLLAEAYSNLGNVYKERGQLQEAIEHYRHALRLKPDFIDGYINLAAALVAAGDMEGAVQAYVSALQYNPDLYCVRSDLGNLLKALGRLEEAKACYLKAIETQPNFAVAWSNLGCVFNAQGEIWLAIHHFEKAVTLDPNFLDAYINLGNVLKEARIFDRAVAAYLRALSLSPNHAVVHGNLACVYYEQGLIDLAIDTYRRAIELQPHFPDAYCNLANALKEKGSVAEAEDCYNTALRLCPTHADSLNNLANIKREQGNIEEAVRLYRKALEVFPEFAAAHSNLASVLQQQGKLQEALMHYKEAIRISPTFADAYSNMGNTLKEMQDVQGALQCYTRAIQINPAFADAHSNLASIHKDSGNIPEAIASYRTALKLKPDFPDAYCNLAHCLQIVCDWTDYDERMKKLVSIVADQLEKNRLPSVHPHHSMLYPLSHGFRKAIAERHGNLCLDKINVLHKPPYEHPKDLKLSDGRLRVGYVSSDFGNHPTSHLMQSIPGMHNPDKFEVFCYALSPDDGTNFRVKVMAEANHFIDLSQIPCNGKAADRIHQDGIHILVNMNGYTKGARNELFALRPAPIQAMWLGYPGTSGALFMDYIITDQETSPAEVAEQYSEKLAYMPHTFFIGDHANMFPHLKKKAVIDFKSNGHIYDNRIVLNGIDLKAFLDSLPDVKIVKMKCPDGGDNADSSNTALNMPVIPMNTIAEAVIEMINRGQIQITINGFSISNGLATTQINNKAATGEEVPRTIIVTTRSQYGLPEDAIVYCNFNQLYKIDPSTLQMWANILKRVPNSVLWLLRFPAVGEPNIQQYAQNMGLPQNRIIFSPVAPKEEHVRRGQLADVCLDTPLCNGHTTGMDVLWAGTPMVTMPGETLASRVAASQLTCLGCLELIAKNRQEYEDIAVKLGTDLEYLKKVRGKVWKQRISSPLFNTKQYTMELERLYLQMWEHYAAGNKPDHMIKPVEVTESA
`HFQIHQHHFMGDDD`: “enrichment fold change” 9.62.
`SHTHTQRDFHGIYSN`: “enrichment fold change” 9.8.
For `HLHHYDDYYTHDPVI`, “enrichment fold change” read 6.82.
Under “enrichment fold change”, `HNYHNHRVQMEYRGE` is recorded as 5.71.
`HYIPHFPWQWDFDHH`: “enrichment fold change” 8.06.
`THTHFYWQPHHRGV`: “enrichment fold change” 6.31.
`FKDGRHAERHFFHQH`: “enrichment fold change” 9.47.
Under “enrichment fold change”, `QLHMLRQQHAHSGAT` is recorded as 5.93.
Under “enrichment fold change”, `TSFAPEYIIDYIRPV` is recorded as 15.9.
Under “enrichment fold change”, `QHYQHHSHDKSHPYE` is recorded as 4.15.
Under “enrichment fold change”, `QPQIHLHHHPSYTGR` is recorded as 3.67.
For `KFMPVYQIIAEMGAF`, “enrichment fold change” read 1.65.

Set 2 — target: CCNE1, cyclin fold, Cln2 fusion (human); technique: yeast growth competition, sequencing; medium: yeast; setting: strong parent motif; relative to: not given; reading: higher = stronger binding
Starting sequence: viral docking peptide; PTARRRLLHDLDT; partner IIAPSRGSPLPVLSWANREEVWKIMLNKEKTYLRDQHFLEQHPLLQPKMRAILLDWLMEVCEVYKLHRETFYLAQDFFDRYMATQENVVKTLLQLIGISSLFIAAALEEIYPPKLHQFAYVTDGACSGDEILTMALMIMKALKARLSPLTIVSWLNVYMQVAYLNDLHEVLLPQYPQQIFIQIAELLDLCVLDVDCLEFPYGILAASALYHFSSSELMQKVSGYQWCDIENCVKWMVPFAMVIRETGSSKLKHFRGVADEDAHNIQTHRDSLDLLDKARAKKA
For `PTARRRLAHDLDT [L8A]`, “normalised enrichment score” read -0.4.
`ATARRRLLHDLDT [P1A]`: “normalised enrichment score” 1.19.
`PTARAAAAHDLDT [R5A R6A L7A L8A]` — result for “normalised enrichment score”: -0.142.
Under “normalised enrichment score”, `PTARKRLLHDLDT [R5K]` is recorded as 0.0853.
`PTARKRLLFDLDT [R5K H9F]` — result for “normalised enrichment score”: 4.34.
`PTARRRLLADLDT [H9A]`: “normalised enrichment score” 1.84.
`PTARARLLHDLDT [R5A]`: “normalised enrichment score” 0.0464.
For `PTARRRALHDLDT [L7A]`, “normalised enrichment score” read -0.191.
For `PTARRALLHDLDT [R6A]`, “normalised enrichment score” read 1.14.
`PTARKRLFHDLDT [R5K L8F]` — result for “normalised enrichment score”: 3.85.

Set 3 — technique: RNA Bind-n-Seq; molecule type: RNA; medium: in vitro; tested at: 1 µM; setting: whole 134-nt RNA, ends assumed; added: 150 mM KCl; relative to: input library; reading: higher = stronger binding
Target: Ras GTPase-activating protein-binding protein 1, C-terminal RGG region (G3BP1, Homo sapiens, UniProt Q13283)
Sequence of UniProt Q13283 (whole entry, looked up): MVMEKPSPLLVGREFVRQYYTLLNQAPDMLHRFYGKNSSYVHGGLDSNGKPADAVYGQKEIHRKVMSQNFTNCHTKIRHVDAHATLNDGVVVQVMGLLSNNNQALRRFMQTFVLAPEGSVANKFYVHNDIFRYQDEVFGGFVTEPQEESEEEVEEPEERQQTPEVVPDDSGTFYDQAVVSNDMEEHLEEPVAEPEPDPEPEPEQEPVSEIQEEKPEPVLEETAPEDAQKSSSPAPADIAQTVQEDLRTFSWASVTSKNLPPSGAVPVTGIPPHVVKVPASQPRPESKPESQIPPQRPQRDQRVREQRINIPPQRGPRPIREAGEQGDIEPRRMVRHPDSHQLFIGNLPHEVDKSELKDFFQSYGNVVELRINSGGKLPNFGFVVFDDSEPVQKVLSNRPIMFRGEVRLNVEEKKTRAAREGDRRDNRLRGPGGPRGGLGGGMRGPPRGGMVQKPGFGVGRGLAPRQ
With `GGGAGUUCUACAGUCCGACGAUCUCAAGUCCUGUGCUACACAUCGUAUGUACCGAAUCGGUUGGGGUUGGGGUUGGGGAAAGUAUUAUGUUACGCCGUUCGGAUCUGCACUUCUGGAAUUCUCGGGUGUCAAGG` the log2 enrichment was 1.41.
`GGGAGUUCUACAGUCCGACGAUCCUCAAGUCCUGUGCUACACAUCGUAUGUACCGAAUCGGGGUGGGGUGGGGUGGAAAGUAUUAUGUUACGCCGUUCGGAUCUGCACUUCCAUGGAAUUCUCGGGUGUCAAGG` has a log2 enrichment of 1.39.
For `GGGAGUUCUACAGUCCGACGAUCUGGCCCUGGUGGCAUGCGGGGAGGAAGAGGUGGCCUCAUGGUUCGUGGUGGUCCCGGUGGAAUGUUCAGAGGUGGCCGUGGUGGAGACAGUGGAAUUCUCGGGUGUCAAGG`, the log2 enrichment was 1.76.
With `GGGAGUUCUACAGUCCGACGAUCUGGCCCUGGUGGCAUGCGGGGAGGAAGAGGUGGCCUCAUGGAUCGUGGUGGUCCCGGUGGAAUGUUCAGAGGUGGCCAUGGUGGAGACAGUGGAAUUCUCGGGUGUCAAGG` the log2 enrichment was 2.67.
`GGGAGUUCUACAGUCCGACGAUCAGUCCUGUGCUACACAUCGUAUGUACCGAAUCGGGCCCCCGGGGCCCCCGGCCCCCGGAAAGUAUUAUGUUACGCCGUUCGGAUCUGCACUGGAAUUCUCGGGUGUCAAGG` has a log2 enrichment of -2.05.
The log2 enrichment of `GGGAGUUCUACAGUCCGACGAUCAAGUCCUGUGCUACACAUCGUAUGUACCGAAUCGGGGAAAAGGAAAAGGAAAAGGGGAAAGUAUUAUGUUACGCCGUUCGGAUCUGCACUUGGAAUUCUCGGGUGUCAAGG` is reported as -1.44.
For `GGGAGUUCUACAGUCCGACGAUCCAAGUCCUGUGCUACACAUCGUAUGUACCGAAUCGGGUUUGGGUUUGGGGUUUGGGAAAGUAUUAUGUUACGCCGUUCGGAUCUGCACUUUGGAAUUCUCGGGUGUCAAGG`, the log2 enrichment was 2.18.
For `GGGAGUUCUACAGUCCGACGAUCGUCCUGUGCUACACAUCGUAUGUACCGAAUCGGGUUUUUGGGAAAAAAAGGGUUUGGGAAAGUAUUAUGUUACGCCGUUCGGAUCUGCACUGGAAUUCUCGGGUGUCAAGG`, the log2 enrichment was -0.507.

Set 4 — target: vanadate, free oxyanion; technique: microfluidic competitive inhibition; medium: in vitro, cell-free expressed; tested at: not given; reading: lower = stronger binding
Setting: derived from inhibition constants, unchanged parent 676 nM
Starting sequence: PafA, mature enzyme, eGFP fusion (Elizabethkingia meningoseptica, UniProt Q9KJX5); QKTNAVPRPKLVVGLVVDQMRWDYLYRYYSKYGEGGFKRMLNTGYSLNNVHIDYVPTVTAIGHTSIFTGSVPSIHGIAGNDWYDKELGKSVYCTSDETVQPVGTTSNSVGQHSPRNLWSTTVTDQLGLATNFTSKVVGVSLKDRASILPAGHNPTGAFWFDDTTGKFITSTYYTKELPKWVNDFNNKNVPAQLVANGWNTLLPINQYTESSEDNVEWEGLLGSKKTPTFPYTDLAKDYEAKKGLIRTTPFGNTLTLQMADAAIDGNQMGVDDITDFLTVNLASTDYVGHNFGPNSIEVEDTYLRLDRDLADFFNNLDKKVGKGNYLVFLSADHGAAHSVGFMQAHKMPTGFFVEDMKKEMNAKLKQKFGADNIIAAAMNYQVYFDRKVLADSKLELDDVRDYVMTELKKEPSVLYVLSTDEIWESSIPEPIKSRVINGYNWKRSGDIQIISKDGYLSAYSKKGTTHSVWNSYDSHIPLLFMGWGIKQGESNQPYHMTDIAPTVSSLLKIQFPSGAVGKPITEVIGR
For `Q492G`, “oxyanion analog dissociation constant” read 593 nM.
Under “oxyanion analog dissociation constant”, `Y455V` is recorded as 882 nM.
`K2V` — result for “oxyanion analog dissociation constant”: 629 nM.
Under “oxyanion analog dissociation constant”, `R115G` is recorded as 892 nM.
For `I449V`, “oxyanion analog dissociation constant” read 792 nM.
For `Y28V`, “oxyanion analog dissociation constant” read 823 nM.
Under “oxyanion analog dissociation constant”, `D264V` is recorded as 650 nM.
For `K179V`, “oxyanion analog dissociation constant” read 646 nM.

For quick reference, copied from above (set 2):
Under “normalised enrichment score”, `PTARKRLLHDLDT [R5K]` is recorded as 0.0853.
`PTARKRLLFDLDT [R5K H9F]` — result for “normalised enrichment score”: 4.34.
